Measurements from different studies.
Compare with care: the assays were run in different laboratories.

SMILES = CN1C(=O)[C@@H](NC(=O)c2nnc(Cc3ccccc3)[nH]2)COc2cccnc21; test system = healthy human, fasted, plasma; setting = oral, 100 mg single dose, geometric mean; Vz/F = 50.9 L
SMILES = Cn1cc(-c2cn3nccc3c(-c3cnn([C@]4(CC#N)C[C@@H](C#N)C4)c3)n2)cn1; test system = healthy human fasted; setting = 1600 mg single dose; Vz/F = 2880 L
SMILES = CCOc1cc(CC(=O)N[C@@H](CC(C)C)c2ccccc2N2CCCCC2)ccc1C(=O)O; test system = human; setting = oral, substrate with omaveloxolone, together with: omaveloxolone once daily; Vz/F = 168 L
SMILES = CC(C)c1nc(N(C)S(C)(=O)=O)nc(-c2ccc(F)cc2)c1/C=C/[C@@H](O)C[C@@H](O)CC(=O)O; test system = healthy human subjects, plasma; setting = oral, 10 mg, arithmetic mean, together with: fruquintinib 5 mg; Vz/F = 7900 L
SMILES = CC1(C)CC[C@]2(NC(=O)C(C)(F)F)CC[C@]3(C)[C@H](C(=O)C=C4[C@@]5(C)C=C(C#N)C(=O)C(C)(C)[C@@H]5CC[C@]43C)[C@@H]2C1; test system = human, plasma; setting = oral, 150 mg single dose, alone, geometric mean; Vz/F = 10000 L
SMILES = Cc1nsc(-c2nnc3n2CCN(C(=O)c2ccc(F)cc2)[C@@H]3C)n1; test system = human, plasma; setting = oral, assumed 70 kg body weight; Vz/F = ~2.7 L/kg
SMILES = CC(C)c1nc(N(C)S(C)(=O)=O)nc(-c2ccc(F)cc2)c1/C=C/[C@@H](O)C[C@@H](O)CC(=O)O; test system = human; setting = oral, 10 mg, together with: vepdegestrant 200 mg; Vz/F = 7490 L
SMILES = C=CC(=O)N1C[C@H](Nc2ncnc3[nH]ccc23)CC[C@@H]1C; test system = human, plasma; setting = oral, 50 mg single dose, alone without rifampicin; Vz/F = 192 L
SMILES = Fc1ccc([C@@H]2CCNC[C@H]2COc2ccc3c(c2)OCO3)cc1; test system = human, CYP2D6 normal metabolizers; setting = oral, 20 mg, steady state, geometric mean; Vz/F = 1620 L
SMILES = [H]/N=C(/N)c1ccc(NCc2nc3cc(C(=O)N(CCC(=O)O)c4ccccn4)ccc3n2C)cc1; test system = healthy human subjects, plasma; setting = oral, 150 mg, dabigatran etexilate, arithmetic mean, together with: fruquintinib 5 mg; Vz/F = 2550 L
SMILES = C[C@@H](c1ccc2nccn2c1)n1nnc2ncc(-c3cnn(C)c3)nc21; test system = human, plasma; setting = oral, cycle 2 day 1, multiple doses, all; Vz/F = 218 L
SMILES = CNC(=O)n1ccc2cc(Oc3ccnc(NC(=O)c4ccc(C5CCN(CCO)CC5)cc4)c3)c(OCCOC)cc21; test system = healthy human, plasma; setting = oral, 35 mg, geometric mean, together with: rabeprazole 20 mg; Vz/F = 12500 L
SMILES = C#C[C@]1(CO)O[C@@H](n2cnc3c(N)nc(F)nc32)C[C@@H]1O; test system = human, plasma; setting = oral, 200 mg, single dose, geometric mean; Vz/F = 2410 L
SMILES = CN(C)C(=O)c1cc2cnc(Nc3ccc(N4CCNCC4)cn3)nc2n1C1CCCC1; test system = human, normal renal function, plasma; setting = oral, 400 mg, single dose, geometric mean; Vz/F = 5070 L
SMILES = Cc1cc(C)c(CNC(=O)c2cc(Cl)c3c(c2C)O[C@@](C)([C@H]2CC[C@H](N(C)C)CC2)O3)c(=O)[nH]1; assay = mean; test system = healthy male humans, plasma; setting = oral, 25 mg, day 12, together with: fluconazole; Vz/F = 806 L
SMILES = C[C@H](Oc1ccc(Br)cc1-c1ccon1)C(=O)O; test system = healthy male humans, plasma; setting = oral, 200 mg once daily, day 10; Vz/F = 37.2 L
